# Assay results from different studies.
# Protocols differ between the studies behind these lines.
# Target: LIM domain kinase 2 (LIMK2, Homo sapiens, UniProt P53671)
Structure (SMILES),assay,setting,scale,endpoint,value
CCn1cc(C(=O)O)c(=O)c2c(N)c(F)c(NC3CCCCC3)cc21,kinase activity,"0.1 µM, together with: ATP at Km",,inhibition,-2.3%
CC(C)=CC1OC(C)(C)C2C=C3C(=O)C(Cl)=CC(O)C3C3C(O)C4OC4C(=O)C132 (stereo not shown),"cell-free assay, competition with immobilised ligand",10 µM,,remaining binding,82%
Nc1ncc(-c2cc(-c3cnn(CC(F)(F)F)c3)ncc2F)nc1C(=O)NC1CNCC(F)C1 (stereo not shown),enzyme activity,1 µM,reference: DMSO control,remaining activity,99.4%
Nc1ncc2c(n1)-c1c([nH]c3ccc(C4=CCOCC4)cc13)CCC2,"binding, competition with immobilised ligand",1 µM,,remaining binding,83%
C[C@H]1CN(C(=O)c2cn(-c3ccnc(N)n3)c3cc(C#CC4(O)CCCCC4)ccc23)CCN1,"cell-free assay, TR-FRET",1 µM,,inhibition,-1%
CNC1C[S+]2CC[S+]3CC[S+](C1)[Ru-4]321([N]=C=S)[n]2c3ccc(OC)cc3c3c4c(c5cc(F)c[n+]1c5c32)C(=O)NC4=O (stereo not shown),KinomeScan,0.1 µM,reference: untreated,remaining binding,92%
C=CC(=O)N1CCc2ccc(-n3c(=O)ccc4cnc5ccc(-c6cnn(C)c6)cc5c43)cc21,KINOMEscan,1 µM,reference: DMSO control,remaining binding,100%
C=CC(=O)N1CCCC(n2c(=O)c3ncccc3n(Cc3ccc(Oc4ccccc4)cc3)c2=O)C1 (stereo not shown),"cell-free assay, competition with immobilised ligand",1 µM,,remaining binding,83%
C=CC(=O)N1Cc2nc(-c3cc(-c4cc(Cl)cnc4Cl)c(F)cc3F)n(-c3ccncn3)c2C1,"cell-free assay, inhibitor",1 µM,,inhibition,0.4%
COc1cc(Nc2nccc(-c3cnn4nc(OC)ccc34)n2)cc(C(F)(F)F)c1,"binding, competition with immobilised ligand",1 µM,,remaining binding,94%
